Results pooled from the literature.
Numbered parts are unrelated; each lists some results of a single study.

Series 1 — technique: competition protein-binding microarray; molecule type: double-stranded DNA, one strand shown; matrix: in vitro; concentration: 2 µM; with: Cbf1 competitor, 0.05 µM; direction: higher = stronger binding; constant ends, left off below: … GTCTTGATTCGCTTGACGCTGCTG
Target: Phosphate system positive regulatory protein PHO4, full length, GST-tagged (PHO4, Saccharomyces cerevisiae, UniProt P07270, residues 1-312)
Notes: whole 60-bp probe, lowest competitor level
Target sequence (chain): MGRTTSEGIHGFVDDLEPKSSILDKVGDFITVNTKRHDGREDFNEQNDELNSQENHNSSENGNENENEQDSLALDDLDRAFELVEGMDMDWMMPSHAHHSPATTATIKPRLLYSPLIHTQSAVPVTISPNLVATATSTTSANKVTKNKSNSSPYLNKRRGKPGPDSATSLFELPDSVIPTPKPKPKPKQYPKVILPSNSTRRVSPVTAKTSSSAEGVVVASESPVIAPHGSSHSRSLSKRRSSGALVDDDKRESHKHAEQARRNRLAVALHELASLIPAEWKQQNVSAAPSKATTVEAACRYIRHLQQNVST
| Oligonucleotide | fluorescence intensity |
| --- | --- |
| CTTTGAACATTAAGGCACATGACAGGCTATGAGCCC | 9580 a.u. |
| AGATGTAACCCAACCGTTGTGACGGTCCAAGGTACC | 3230 a.u. |
| CTATCGGCCGCCACTGTCGTGTCTGAGTAGACGGGA | 5390 a.u. |
| AAAGCGGTAATTTGTCACACAACTTCACATATCTAT | 4570 a.u. |
| AGGTCTTTGCGTAGGATTGTATAAGCCCGGCCATTG | 2440 a.u. |
| TCGCAGATGCCATATCCCGTGCCAGATATACTATAA | 8490 a.u. |
| CTAACGAAGGTTTGTCCGGTGGGTGACAAGCCAAGT | 3650 a.u. |
| GACGGGCGCTGGGGACTCGTGCCGATCCGGGACTGG | 10100 a.u. |

Series 2 — technique: protein-binding microarray; molecule type: double-stranded DNA, one strand shown; matrix: in vitro; concentration: not given; direction: higher = stronger binding
Target: Myc proto-oncogene protein, bHLH-zipper, MAX partner unstated (MYC, Homo sapiens, UniProt P01106, residues 368-449)
Sequence of UniProt P01106 (368-449, looked up): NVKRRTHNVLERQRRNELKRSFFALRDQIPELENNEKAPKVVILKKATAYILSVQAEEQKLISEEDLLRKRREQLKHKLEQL
Notes: k-mer, scored over probes, only values ≥0.25
| Oligonucleotide | E-score |
| --- | --- |
| ACGCGGAA | 0.27 |
| CAGCATGG | 0.452 |
| ATCCCATG | 0.251 |
| ATGCGGAC | 0.346 |
| CATACCAC | 0.269 |
| CGTGGGTA | 0.304 |
| GTGGTCCA | 0.306 |
| AGTATGGC | 0.303 |
| CACGTTGC | 0.437 |
| AGGACACG | 0.266 |
| ACGTGCGC | 0.436 |
| CCACGTGC | 0.496 |
| CGTGTCCA | 0.343 |

Series 3 — technique: aptamer microarray, sandwich; molecule type: DNA with 2'F-ANA; matrix: in vitro; concentration: 200 nM; with: Cy3 exosite-II aptamer, 400 nM; direction: higher = stronger binding; oligonucleotide: GGTTGGTGTGGTTGG
Target: Prothrombin, mature alpha-thrombin (F2, Homo sapiens, UniProt P00734)
Notes: whole 15-mer aptamer, many near background
| Modification | mean fluorescence intensity [a.u.] |
| --- | --- |
| 2'F-ANA at 7 8 9 11 12 15 | 682 |
| 2'F-ANA at 3 6 9 10 11 13 | 431 |
| 2'F-ANA at 1 2 9 10 11 13 15 | 51.4 |
| 2'F-ANA at 2 3 4 5 6 7 9 10 11 12 14 15 | 55 |
| 2'F-ANA at 1 2 7 8 9 10 12 | 81.8 |
| 2'F-ANA at 2 3 5 6 8 10 11 12 14 15 | 59.1 |
| 2'F-ANA at 5 6 9 10 11 12 | 77.8 |
| 2'F-ANA at 1 3 4 5 6 8 10 11 15 | 47.8 |
| 2'F-ANA at 1 2 3 5 9 11 12 | 108 |
| 2'F-ANA at 3 6 7 11 12 13 | 1090 |
| 2'F-ANA at 1 3 6 7 8 9 10 11 12 13 14 15 | 60.8 |
| 2'F-ANA at 1 2 5 12 13 15 | 77.2 |
| 2'F-ANA at 4 7 8 13 14 15 | 124 |
| 2'F-ANA at 1 3 4 5 6 8 12 13 15 | 81.2 |

Mixed results
| Substance | target | assay | test system | setting | scale | quantity | result |
| --- | --- | --- | --- | --- | --- | --- | --- |
| PhoQ, residues 284 288 289 292 302 303 DDMDFR | PhoP, residues 12 14 15 18 19 LHHSG (Escherichia coli, UniProt P23836) | Sort-seq, refers to: YFP reporter | E. coli | PhoQ-PhoP variant library, with: 10 µM Mg2+ | relative to: high Mg2+ state, higher = stronger signaling | fold induction | 0.778 |
| PSSMRKICTYFHR | human cyclin A2 | peptide binding, competitive growth sequencing | peptide, Saccharomyces cerevisiae, cyclin A2-Cln2 fusion strain | mutational scanning library 2 | direction not given | enrichment score | -0.58 |

Excerpt of the above (series 1):
| Oligonucleotide | fluorescence intensity |
| --- | --- |
| AAAGCGGTAATTTGTCACACAACTTCACATATCTAT | 4570 a.u. |
| AGATGTAACCCAACCGTTGTGACGGTCCAAGGTACC | 3230 a.u. |
| GACGGGCGCTGGGGACTCGTGCCGATCCGGGACTGG | 10100 a.u. |
